{"data": "Measurements collected from several papers", "note": "Parts stem from different laboratories: compare values within a part only. Changes are numbered by the printed parent chain."}
{"data": "Study 1", "target": "RNA binding protein fox-1 homolog 2, RRM domain, GST-SBP tag (RBFOX2, Homo sapiens, UniProt O43251-10, residues 100-194)", "technique": "RNA Bind-n-Seq", "molecule type": "RNA", "medium": "in vitro", "concentration": "365 nM", "notes": "natural RNA segment, single round, ends assumed", "baseline": "no-protein control", "direction": "higher = stronger binding", "shared flanks, not repeated": "GGGAGUUCUACAGUCCGACGAUC … UGGAAUUCUCGGGUGCCAA", "Residues (chain)": "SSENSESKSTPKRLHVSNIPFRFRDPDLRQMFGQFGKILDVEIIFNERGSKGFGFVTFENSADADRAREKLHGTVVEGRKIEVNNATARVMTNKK"}
{"Strand": "AACACUUUUAGAGAUCCUCUGUAGAAAGUCACAGGAAAGAGAAAGAUAUUGUUCAGCUUGAGUUGGGUCAUGCCAAACAGUCAUUUAUUUGGUGGGUAGAAAUACAGUCA", "RBNS enrichment (R)": 13.2}
{"Strand": "AUGGUCAAUGGUUGUAAUCCCAGCACUACAAGGCAGGAAGAUCAUAAGUUCAAGGUCAUUCUUAUCUAUAUAAUGAGUUUAAGGCAGUCUAAGCUACAUGAGACCCUGUU", "RBNS enrichment (R)": 0.293}
{"Strand": "ACACAGGCAGCUCCUUUCCCUUCACGUGGUCUGCAGAGAGCAGGGUGAGCUGCCAGCUGCCCCUCUCCACCAGGGUACCCUGUCUUGGUGGUUAGGGGCCACUUUUCCUU", "RBNS enrichment (R)": 0.279}
{"Strand": "AGGAGGCCCAUUUUCUGCCUGGCAGGGGGCAGGUCUGUGCCCUCCCGCUGACUCCUGCUGUGUCCUGAGGUGCAUUUCCUGUUGUACACACAAGGGCCAGGCUCCAUUCU", "RBNS enrichment (R)": 0.345}
{"Strand": "CCAAGCAAGGUCAUUGUUGUGAAAAGUCUGUAAAUGCUUCUAACUCUUCCCCCUCUUAAAAUCAUAAUAGUUGUACAGAAUUUUAAAAAGGAAAAGUUUAAAAUACCUAU", "RBNS enrichment (R)": 0.572}
{"Strand": "UUGGUCACAGUGUGCAUCGCACCGUGCUGUACAUGUGCAGACGCAGCCUGCAGCCAGGUUUUUAUUUAAUGUAAAUAGUUUCUGUUUCCACUGAGGCAGUUUCUGGUACU", "RBNS enrichment (R)": 0.239}
{"Strand": "GGCCUGGGUGGGGACAUGCCUUGAGUGUGCUGGAAUGUGGGUGGAGCCUGCUUCUGGGCCACCCCUCCUGGUUCAGGGCUGUGCUCACAGCAGAUUCUUGCAGUAUCAAG", "RBNS enrichment (R)": 0.434}
{"Strand": "GGUGACCUCAGGGCCAGGCCCAUGGAUAACACCUGCUAUCCCUGCCCAGCGCCACGGGCCAGGAAGUACAAGUGUGGCCUGCCCCAGCCGUGUCCUGAGGAGCACCUGGC", "RBNS enrichment (R)": 0.397}
{"Strand": "CAUUUUGCUACCAGUUUCAUUGAAUUGAUUUAAAAAUAAAUAAAUAAUAAAAUUAUUUCUGAUGAUGAAAAUUCCUUGUUUUUUUUUUUAAUAACAGAACUUUGGACAAA", "RBNS enrichment (R)": 1.16}
{"Strand": "GUCUUCAUCUUCCUCCUCAAGACAGCUGGUGCCUUAGAAUUGGCCCAGCCUCAGAUCCUGUCUUUAGCAACCAGCUAAUAUUUACCCAGAGGUACUGCAAUAGAGUAUUU", "RBNS enrichment (R)": 0.576}
{"Strand": "CAGAUGUCUAACGGGAGCUUGCUUAAGGGGAAUGUUAGCAUUGCCAAGUGCGAUGGUGUUGCCUUUCCAUGGGAUAUUGCAUUUUCUUACACUACCCGAGAUGUCCAGAC", "RBNS enrichment (R)": 0.463}
{"data": "Study 2", "target": "CCNA2, cyclin fold, Cln2 fusion (human)", "technique": "yeast growth competition, sequencing", "medium": "yeast", "notes": "strong parent motif", "baseline": "not given", "direction": "higher = stronger binding", "starting sequence": "ORC1 docking peptide (human); PRARKRLELGNLG; partner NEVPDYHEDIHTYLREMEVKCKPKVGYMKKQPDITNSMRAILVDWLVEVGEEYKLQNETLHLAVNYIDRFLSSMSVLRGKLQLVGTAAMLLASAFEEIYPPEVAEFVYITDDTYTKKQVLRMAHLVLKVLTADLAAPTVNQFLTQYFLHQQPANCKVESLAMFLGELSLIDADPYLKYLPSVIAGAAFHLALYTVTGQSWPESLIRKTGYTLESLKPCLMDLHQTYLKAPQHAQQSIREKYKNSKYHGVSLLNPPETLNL"}
{"Variant": "PRARKRLELDNLG [G10D]", "normalised enrichment score": 6.67}
{"Variant": "FRARKRLELGNLG [P1F]", "normalised enrichment score": 3.42}
{"Variant": "PRARKRHELGNLG [L7H]", "normalised enrichment score": 0.978}
{"Variant": "PRARKRLELGPLG [N11P]", "normalised enrichment score": 5.27}
{"Variant": "PRARKRLELGNIG [L12I]", "normalised enrichment score": 5.12}
{"Variant": "PRALKRLELGNLG [R4L]", "normalised enrichment score": 0.949}
{"Variant": "PRATKRLELGNLG [R4T]", "normalised enrichment score": 1.38}
{"Variant": "PRARKRLEVGNLG [L9V]", "normalised enrichment score": 2.4}
{"Variant": "PRAFKRLELGNLG [R4F]", "normalised enrichment score": 1.08}
{"Variant": "PRARKRLELGNGG [L12G]", "normalised enrichment score": 4.52}
{"Variant": "PRARIRLELGNLG [K5I]", "normalised enrichment score": 2.15}
{"Variant": "PRARMRLELGNLG [K5M]", "normalised enrichment score": 2.25}
{"Variant": "PRARKRLWLGNLG [E8W]", "normalised enrichment score": 3.23}
{"Variant": "PRARKRLERGNLG [L9R]", "normalised enrichment score": 1.33}
{"Variant": "PRARKRLELGNAG [L12A]", "normalised enrichment score": 5.5}
{"Variant": "PRARKRLELMNLG [G10M]", "normalised enrichment score": 4.01}
{"Variant": "WRARKRLELGNLG [P1W]", "normalised enrichment score": 3.21}
{"data": "Study 3", "target": "Interferon regulatory factor 5, full length, phosphomimetic (IRF5, Homo sapiens, UniProt Q13568-2, residues 1-514, K96S/S451D/S453D/S456D/S462D)", "technique": "protein-binding microarray", "molecule type": "double-stranded DNA, one strand shown", "medium": "in vitro", "concentration": "250 nM", "notes": "60-bp whole probe", "added": "salmon DNA 0.4 mg/ml", "baseline": "random background probes", "direction": "higher = stronger binding", "shared flanks, not repeated": "GCCTAGCAC … GTCTTGATTCGCTTGACGCTGCTG"}
{"Strand": "TCAGCAAAAATGATTGGACTGTGCTAG", "log fluorescence [z-score]": -0.0284}
{"Strand": "GACAAACTGAGACTGGAGACGTGCTAG", "log fluorescence [z-score]": -0.28}
{"Strand": "TCAAGTCCCAAGAATGGTACTGTGCTA", "log fluorescence [z-score]": -0.0972}
{"Strand": "TTAGATATCAGCCTGGATTAGTGCTAG", "log fluorescence [z-score]": 0.334}
{"Strand": "GACGGTAACGGTCTCGGGACGTGCTAG", "log fluorescence [z-score]": -0.0885}
{"Strand": "TTAGGTTTCCTTCTCATTTAGTGCTAG", "log fluorescence [z-score]": 1.35}
{"Strand": "GAGGGTTTCGGGACTGGGGACGTGCTA", "log fluorescence [z-score]": 2.68}
{"Strand": "TTAGAACTGGGGTATCCATTAGTGCTA", "log fluorescence [z-score]": 0.272}
{"Strand": "TTAGGACTGGGAATGGGTTAGTGCTAG", "log fluorescence [z-score]": -0.0907}
{"Strand": "GACGGTTTCGGTTCCCGGACGTGCTAG", "log fluorescence [z-score]": 9.94}
{"Strand": "GACGATTTCAGTTCCGCGACGTGCTAG", "log fluorescence [z-score]": 1.21}
{"Strand": "GACGCTATCGGACTGGGGACGTGCTAG", "log fluorescence [z-score]": 1}
{"Strand": "TAGTATATACACTTATGACTGTGCTAG", "log fluorescence [z-score]": 0.324}
{"data": "Further values, each from its own experiment"}
{"Substance": "PhoQ, residues 284 288 289 292 302 303 SSTLLI", "target": "PhoP, residues 12 14 15 18 19 TPLRH (Escherichia coli, UniProt P23836)", "test": "Sort-seq, item: YFP reporter", "system": "E. coli", "setting": "PhoQ-PhoP variant library, added: 10 µM Mg2+", "scale": "baseline: high Mg2+ state, higher = stronger signaling", "measurement": "fold induction", "result": 0.611}
{"note": "A few entries again (study 1):"}
{"Strand": "AGGAGGCCCAUUUUCUGCCUGGCAGGGGGCAGGUCUGUGCCCUCCCGCUGACUCCUGCUGUGUCCUGAGGUGCAUUUCCUGUUGUACACACAAGGGCCAGGCUCCAUUCU", "RBNS enrichment (R)": 0.345}
{"Strand": "CCAAGCAAGGUCAUUGUUGUGAAAAGUCUGUAAAUGCUUCUAACUCUUCCCCCUCUUAAAAUCAUAAUAGUUGUACAGAAUUUUAAAAAGGAAAAGUUUAAAAUACCUAU", "RBNS enrichment (R)": 0.572}
{"Strand": "UUGGUCACAGUGUGCAUCGCACCGUGCUGUACAUGUGCAGACGCAGCCUGCAGCCAGGUUUUUAUUUAAUGUAAAUAGUUUCUGUUUCCACUGAGGCAGUUUCUGGUACU", "RBNS enrichment (R)": 0.239}
{"Strand": "GGCCUGGGUGGGGACAUGCCUUGAGUGUGCUGGAAUGUGGGUGGAGCCUGCUUCUGGGCCACCCCUCCUGGUUCAGGGCUGUGCUCACAGCAGAUUCUUGCAGUAUCAAG", "RBNS enrichment (R)": 0.434}
{"Strand": "GGUGACCUCAGGGCCAGGCCCAUGGAUAACACCUGCUAUCCCUGCCCAGCGCCACGGGCCAGGAAGUACAAGUGUGGCCUGCCCCAGCCGUGUCCUGAGGAGCACCUGGC", "RBNS enrichment (R)": 0.397}
{"Strand": "CAUUUUGCUACCAGUUUCAUUGAAUUGAUUUAAAAAUAAAUAAAUAAUAAAAUUAUUUCUGAUGAUGAAAAUUCCUUGUUUUUUUUUUUAAUAACAGAACUUUGGACAAA", "RBNS enrichment (R)": 1.16}
